Experimental data pooled from the literature.
Lines come from different studies, so protocols differ. ± gives the spread as reported.
GLP1R: Glucagon-like peptide 1 receptor (GLP1R, Homo sapiens, UniProt P43220)
Sequence of UniProt P43220 (whole entry, looked up): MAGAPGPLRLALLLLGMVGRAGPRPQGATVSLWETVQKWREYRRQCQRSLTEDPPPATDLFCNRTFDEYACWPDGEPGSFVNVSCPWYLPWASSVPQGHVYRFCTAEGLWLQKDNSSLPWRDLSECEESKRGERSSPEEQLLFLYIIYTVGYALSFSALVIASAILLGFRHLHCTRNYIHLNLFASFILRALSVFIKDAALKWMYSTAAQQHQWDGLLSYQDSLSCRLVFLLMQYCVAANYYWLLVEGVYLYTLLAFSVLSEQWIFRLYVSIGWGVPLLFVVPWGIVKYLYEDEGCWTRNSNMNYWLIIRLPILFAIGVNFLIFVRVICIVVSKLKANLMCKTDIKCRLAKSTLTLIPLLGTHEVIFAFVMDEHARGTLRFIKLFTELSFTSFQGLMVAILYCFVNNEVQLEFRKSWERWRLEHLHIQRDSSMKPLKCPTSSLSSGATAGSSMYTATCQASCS
Sequence of UniProt P34975 (whole entry, looked up): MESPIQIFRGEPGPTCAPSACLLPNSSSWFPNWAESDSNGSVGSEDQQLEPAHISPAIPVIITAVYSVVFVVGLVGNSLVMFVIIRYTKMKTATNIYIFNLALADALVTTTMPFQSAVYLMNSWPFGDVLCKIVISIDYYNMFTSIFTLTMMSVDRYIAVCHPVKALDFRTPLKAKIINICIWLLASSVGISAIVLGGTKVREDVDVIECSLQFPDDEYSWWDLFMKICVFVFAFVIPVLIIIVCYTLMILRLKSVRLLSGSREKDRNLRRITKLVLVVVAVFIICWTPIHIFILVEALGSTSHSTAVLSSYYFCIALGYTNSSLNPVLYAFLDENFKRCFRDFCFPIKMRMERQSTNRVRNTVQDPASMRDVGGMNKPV
Sequence of UniProt P33535 (whole entry, looked up): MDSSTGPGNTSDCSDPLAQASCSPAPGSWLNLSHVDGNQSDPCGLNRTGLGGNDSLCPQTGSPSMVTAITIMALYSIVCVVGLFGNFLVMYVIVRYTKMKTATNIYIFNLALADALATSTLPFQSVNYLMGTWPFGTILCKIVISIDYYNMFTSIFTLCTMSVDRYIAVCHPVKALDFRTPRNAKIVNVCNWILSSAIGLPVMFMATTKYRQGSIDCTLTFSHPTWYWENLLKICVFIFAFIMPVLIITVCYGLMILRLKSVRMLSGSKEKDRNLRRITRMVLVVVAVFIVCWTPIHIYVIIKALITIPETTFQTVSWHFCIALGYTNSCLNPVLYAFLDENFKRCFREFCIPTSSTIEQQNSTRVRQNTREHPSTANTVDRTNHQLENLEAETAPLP
Sequence of UniProt P20309 (whole entry, looked up): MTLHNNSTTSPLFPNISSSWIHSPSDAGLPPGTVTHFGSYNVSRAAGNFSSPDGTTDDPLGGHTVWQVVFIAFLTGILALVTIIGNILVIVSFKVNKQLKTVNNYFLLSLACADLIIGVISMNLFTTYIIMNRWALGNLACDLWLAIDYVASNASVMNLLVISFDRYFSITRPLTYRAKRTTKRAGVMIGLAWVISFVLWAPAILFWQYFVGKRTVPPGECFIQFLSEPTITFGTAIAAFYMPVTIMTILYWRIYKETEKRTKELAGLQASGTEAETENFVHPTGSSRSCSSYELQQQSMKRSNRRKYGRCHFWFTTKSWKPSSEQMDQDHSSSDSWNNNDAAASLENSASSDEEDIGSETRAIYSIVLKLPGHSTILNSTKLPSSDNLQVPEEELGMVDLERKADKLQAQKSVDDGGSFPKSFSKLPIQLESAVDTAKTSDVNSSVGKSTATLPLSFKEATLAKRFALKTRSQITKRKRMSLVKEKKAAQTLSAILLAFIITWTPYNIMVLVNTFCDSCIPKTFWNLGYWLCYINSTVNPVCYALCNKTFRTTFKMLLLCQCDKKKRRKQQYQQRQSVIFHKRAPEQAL
Sequence of UniProt P47871 (whole entry, looked up): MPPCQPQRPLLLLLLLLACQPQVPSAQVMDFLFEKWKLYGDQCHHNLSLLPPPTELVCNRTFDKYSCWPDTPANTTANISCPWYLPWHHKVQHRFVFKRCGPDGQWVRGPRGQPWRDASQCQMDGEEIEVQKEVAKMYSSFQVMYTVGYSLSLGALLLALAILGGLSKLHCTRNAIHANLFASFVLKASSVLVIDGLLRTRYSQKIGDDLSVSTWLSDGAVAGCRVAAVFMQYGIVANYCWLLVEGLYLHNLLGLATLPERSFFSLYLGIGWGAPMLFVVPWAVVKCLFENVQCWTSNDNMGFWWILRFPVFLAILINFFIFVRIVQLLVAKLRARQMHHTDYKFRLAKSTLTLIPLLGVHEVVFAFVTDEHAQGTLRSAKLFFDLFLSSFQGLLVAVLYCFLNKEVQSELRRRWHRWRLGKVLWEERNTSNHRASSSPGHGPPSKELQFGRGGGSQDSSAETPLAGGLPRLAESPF

CC[C@H](C)[C@H](NC(=O)[C@H](C)NC(=O)[C@@H](NC(=O)[C@H](CC(=O)O)NC(=O)[C@H](CCCCN)NC(=O)[C@H](CO)NC(=O)[C@@H](NC(=O)[C@H](CC(N)=O)NC(=O)[C@H](C)NC(=O)[C@@H](NC(=O)[C@H](CCC(=O)O)NC(=O)[C@H](CCCCN)NC(=O)[C@@H](NC(=O)[C@@H](NC(=O)[C@H](Cc1c[nH]cn1)NC(=O)[C@H](CCCCN)NC(=O)[C@@H](NC(=O)[C@H](CCCCN)NC(=O)[C@H](CCCCN)NC(=O)[C@@H](NC(=O)[C@H](CC(C)C)NC(=O)[C@H](CCCCN)NC(=O)[C@H](CC(N)=O)NC(=O)[C@H](Cc1ccccc1)NC(=O)[C@H](CCCNC(=N)N)NC(=O)[C@H](CCCCN)NC(=O)[C@H](CCCNC(=N)N)NC(=O)[C@H](Cc1ccccc1)NC(=O)CN)C(C)C)C(C)C)[C@@H](C)O)[C@@H](C)CC)[C@@H](C)O)C(C)C)C(C)C)C(=O)N[C@H](C(=O)N[C@@H](C)C(=O)NCC(=O)N[C@@H](CO)C(=O)NCC(=O)N[C@H](C(=O)N[C@@H](C)C(=O)N[C@H](C(=O)NCC(=O)N[C@@H](C)C(=O)N[C@@H](C)C(=O)N[C@@H](CCSC)C(N)=O)C(C)C)C(C)C)C(C)C has an inhibition of 44% (Muscarinic acetylcholine receptor M3 (CHRM3, Homo sapiens, UniProt P20309); antagonist, CEREP off-target panel; 10 µM).
CC(C)C[C@@H]1NC(=O)[C@@H](NC(=O)[C@H](CC(=O)O)NC(=O)[C@H](C)N)CSSC[C@@H]2NC(=O)[C@@H]3CSSC[C@@H](C(=O)N[C@@H](CCCNC(=N)N)C(=O)O)NC(=O)[C@H](CCCNC(=N)N)NC(=O)[C@H](CCC(N)=O)NC(=O)[C@H](CCC(=O)O)NC(=O)[C@@H]4CCCN4C(=O)[C@H](CC(N)=O)NC(=O)[C@H]([C@@H](C)O)NC(=O)CNC(=O)[C@H](CCCNC(=N)N)NC(=O)[C@H](CCCNC(=N)N)NC(=O)[C@H](CO)NC(=O)[C@H](CSSC[C@H](NC(=O)[C@H](CC(C)C)NC(=O)[C@H](CCCCN)NC(=O)[C@H](CC(C)C)NC(=O)[C@H](Cc4c[nH]cn4)NC(=O)[C@H](C)NC1=O)C(=O)N[C@@H](CCCCN)C(=O)N[C@@H](CCCCN)C(=O)N[C@@H](CC(N)=O)C(=O)N[C@@H](CCCCN)C(=O)N[C@@H](CC(=O)O)C(=O)N3)NC(=O)[C@H](CCCCN)NC(=O)[C@H](CCCCN)NC(=O)[C@H](CO)NC2=O: “specific [3H]ryanodine binding” 96.6 ± 8.3% (Ryanodine receptor 1 (RYR1, Oryctolagus cuniculus, UniProt P11716); activator; 100 nM, pCa 7; reference: control at pCa 5).
CC[C@H](C)[C@H](N)C(=O)N[C@@H](CO)C(=O)N[C@@H](Cc1ccccc1)C(=O)N[C@@H]1CSCc2ccc(cc2)-c2ccc(cc2)CSC[C@@H](C(=O)N[C@@H](CCC(=O)O)C(=O)N[C@@H](CO)C(=O)NCC(=O)N[C@@H](CO)C(N)=O)NC(=O)[C@H](Cc2ccc(O)cc2)NC(=O)[C@H](Cc2ccc(O)cc2)NC(=O)[C@H](CC(=O)O)NC(=O)[C@H](CC(C)C)NC(=O)[C@H](CC(C)C)NC(=O)[C@H](CCC(=O)O)NC1=O has a kon of 744 M⁻¹ s⁻¹ (Envelope glycoprotein gp160 (env, Human immunodeficiency virus type 1 group M subtype B, UniProt P35961); binding, SPR).
CCCCCCCCCCCCCCCC(=O)N[C@@H](CCC(=O)NCCCC[C@H](NC(=O)[C@H](CO)NC(=O)[C@@H]1CCCN1C(=O)[C@@H]1CCCN1C(=O)[C@@H]1CCCN1C(=O)[C@H](C)NC(=O)CNC(=O)[C@H](CO)NC(=O)[C@H](CO)NC(=O)[C@@H]1CCCN1C(=O)CNC(=O)CNC(=O)[C@H](C)NC(=O)[C@H](CC(C)C)NC(=O)[C@H](CC(C)C)NC(=O)[C@H](Cc1c[nH]c2ccccc12)NC(=O)[C@H](CC(N)=O)NC(=O)[C@@H](NC(=O)[C@H](Cc1ccccc1)NC(=O)[C@H](CCC(=O)O)NC(=O)C(C)(C)NC(=O)[C@H](C)NC(=O)[C@H](C)NC(=O)[C@H](CCC(N)=O)NC(=O)[C@H](CCCCN)NC(=O)[C@H](CC(=O)O)NC(=O)[C@H](CC(C)C)NC(=O)[C@H](Cc1ccc(O)cc1)NC(=O)[C@@H](NC(=O)[C@H](CO)NC(=O)[C@H](Cc1ccc(O)cc1)NC(=O)[C@H](CC(=O)O)NC(=O)[C@H](CO)NC(=O)[C@@H](NC(=O)[C@H](Cc1ccccc1)NC(=O)[C@@H](NC(=O)CNC(=O)[C@H](CCC(=O)O)NC(=O)CSCC(=O)NCCN1C(=O)CSC1=O)[C@@H](C)O)[C@@H](C)O)[C@@H](C)CC)C(C)C)C(N)=O)C(=O)O has an Emax of 100% (GLP1R; cAMP, agonist).
CSCC[C@@H]1NC(=O)[C@H](Cc2ccccc2)NC(=O)CNC(=O)[C@H](NC(=O)[C@@H](N)Cc2ccc(O)cc2)CSSC[C@H](C(=O)N[C@@H](Cc2c[nH]c3ccccc23)C(=O)NCc2cc(C(F)(F)F)cc(C(F)(F)F)c2)NC(=O)[C@@H]2CCCN2C1=O has an Emax of 9% (Mu-type opioid receptor (Oprm1, Rattus norvegicus, UniProt P33535); GTPγS binding, agonist, radiometric; cell membranes).
NS(=O)(=O)c1ccc(NC(=O)c2ccccc2SSc2ccccc2C(=O)Nc2ccc(S(N)(=O)=O)cc2)cc1 has a Hill coefficient of 1.41 (Gag-Pol polyprotein, integrase residues 50-288 (gag-pol, Human immunodeficiency virus type 1 group M subtype B, UniProt P04585, C1427S); DNA binding, fluorescence anisotropy; integrase ΔN; compound:IN ratio 3:1, together with: 10 mM Mg2+, U5 DNA).
The potency ratio of CC[C@H](C)[C@H](NC(=O)[C@H](CCCNC(=N)N)NC(=O)[C@H](CCCNC(=N)N)NC(=O)[C@H](CC(C)C)NC(=O)[C@H](Cc1ccccc1)NC(=O)CNC(=O)CNC(=O)[C@@H](N)Cc1ccc(O)cc1)C(=O)N[C@@H](CCCNC(=N)N)C(=O)N1CCC[C@H]1C(=O)N[C@@H](CCCCN)C(=O)N[C@@H](CC(C)C)C(=O)N[C@@H](CCCCN)C(N)=O is reported as roughly 10 (Kappa-type opioid receptor (Oprk1, Rattus norvegicus, UniProt P34975); reference: membrane potential over GTPγS).
With CC[C@H](C)[C@H](NC(=O)[C@H](C)NC(=O)[C@H](CC(N)=O)NC(=O)[C@H](CCCCN)NC(=O)[C@H](Cc1ccccc1)NC(=O)[C@H](CC(C)C)NC(=O)[C@@H](NC(=O)[C@@H](NC(=O)[C@H](CC(C)C)NC(=O)[C@@H]1CCCN1C(=O)[C@@H](NC(=O)[C@H](CCC(N)=O)NC(=O)[C@H](CO)NC(=O)[C@H](CCCCN)NC(=O)[C@H](CCC(=O)O)NC(=O)[C@H](CO)NC(=O)[C@@H](NC(=O)[C@H](CCSC)NC(=O)[C@H](Cc1ccccc1)NC(=O)CNC(=O)CNC(=O)[C@@H](N)Cc1ccc(O)cc1)[C@@H](C)O)[C@@H](C)O)C(C)C)[C@@H](C)O)C(=O)N[C@H](C(=O)N[C@@H](CCCCN)C(=O)N[C@@H](CC(N)=O)C(=O)N[C@@H](C)C(=O)N[C@@H](Cc1ccc(O)cc1)C(=O)N[C@@H](CCCCN)C(=O)N[C@@H](CCCCN)C(=O)NCC(=O)N[C@@H](CCC(=O)O)C(=O)O)[C@@H](C)CC the Emax was 71 ± 5% (Mu-type opioid receptor (Oprm1, Mus musculus, UniProt P42866); HEK293).
The binding enthalpy of CC[C@H](C)[C@H](N)C(=O)N[C@@H](CC(N)=O)C(=O)N[C@@H](CC(N)=O)C(=O)N[C@H](C(=O)N1C[C@@H](n2cc([C]34[CH]5[CH]6[CH]7[CH]3[Fe]6754389%10[CH]4[CH]3[CH]8[CH]9[CH]4%10)nn2)C[C@H]1C(=O)N[C@@H](Cc1cn(C)c2ccccc12)C(N)=O)[C@@H](C)CC (some centres unmarked) is reported as -9.3 ± 0.8 kcal/mol (Envelope glycoprotein gp160, gp120 (env, Human immunodeficiency virus type 1 group M subtype B, UniProt P35961, S370A); ITC; concentration not given, gp120 S375A mutant).
With CC[C@H](C)[C@H](NC(=O)[C@H](CCCCN)NC(=O)[C@H](CC(=O)O)NC(=O)[C@H](CC(C)C)NC(=O)[C@H](Cc1ccc(O)cc1)NC(=O)[C@@H](NC(=O)[C@H](CO)NC(=O)[C@H](Cc1ccc(O)cc1)NC(=O)[C@H](CC(=O)O)NC(=O)[C@H](CO)NC(=O)[C@@H](NC(=O)[C@H](Cc1ccccc1)NC(=O)[C@@H](NC(=O)CNC(=O)[C@H](CCC(=O)O)NC(=O)C(C)(C)NC(=O)[C@H](Cc1ccc(O)cc1)NC(=O)[C@@H](N)[C@@H](C)O)[C@@H](C)O)[C@@H](C)O)[C@@H](C)CC)C(=O)N[C@@H](C)C(=O)N[C@@H](CCC(N)=O)C(=O)NC(C)(C)C(=O)N[C@@H](CCC(=O)O)C(=O)N[C@@H](Cc1ccccc1)C(=O)N[C@H](C(=O)N[C@@H](CC(N)=O)C(=O)N[C@@H](Cc1c[nH]c2ccccc12)C(=O)N[C@@H](CC(C)C)C(=O)N[C@@H](CC(C)C)C(=O)N[C@@H](C)C(=O)NCC(=O)NCC(=O)N1CCC[C@H]1C(=O)N[C@@H](CO)C(=O)N[C@@H](CO)C(=O)NCC(=O)N[C@@H](C)C(=O)N1CCC[C@H]1C(=O)N1CCC[C@H]1C(=O)N1CCC[C@H]1C(=O)N[C@@H](CO)C(=O)O)C(C)C the potency ratio was roughly 4 fold (GLP1R; cAMP, agonist; reference: compound over GLP-1 (fold weaker)).
The stimulation of CC[C@H](C)[C@H](NC(=O)[C@H](CCCN)NC(=O)[C@H](CC(=O)O)NC(=O)[C@H](CC(C)C)NC(=O)C(C)(CC(C)C)NC(=O)[C@@H](NC(=O)[C@H](CO)NC(=O)[C@H](Cc1ccc(O)cc1)NC(=O)[C@H](CC(=O)O)NC(=O)[C@H](CO)NC(=O)[C@@H](NC(=O)[C@H](Cc1ccccc1)NC(=O)[C@@H](NC(=O)CNC(=O)[C@H](CCC(=O)O)NC(=O)C(C)(C)NC(=O)[C@@H](N)Cc1ccc(O)cc1)[C@@H](C)O)[C@@H](C)CC)[C@@H](C)CC)C(=O)N[C@@H](Cc1c[nH]cn1)C(=O)N[C@@H](CCC(N)=O)C(=O)NC(C)(C)C(=O)N[C@@H](CC(=O)O)C(=O)N[C@@H](Cc1ccccc1)C(=O)N[C@H](C(=O)N[C@@H](CCC(=O)O)C(=O)N[C@@H](Cc1ccc(O)cc1)C(=O)N[C@@H](CCCCNC(=O)COCCOCCNC(=O)COCCOCCNC(=O)CC[C@H](NC(=O)CCCCCCCCCCCCCCCCCCC(=O)O)C(=O)O)C(=O)N[C@@H](CC(C)C)C(=O)N[C@@H](CCC(=O)O)C(=O)NCC(=O)NCC(=O)N1CCC[C@H]1C(=O)N[C@@H](CO)C(=O)N[C@@H](CO)C(=O)NCC(=O)N[C@@H](C)C(=O)N1CCC[C@H]1C(=O)N1CCC[C@H]1C(=O)N1CCC[C@H]1C(=O)N[C@@H](CO)C(N)=O)C(C)C (some centres unmarked) is reported as 0.7 ± 0.9% (Glucagon receptor (GCGR, Homo sapiens, UniProt P47871); cAMP accumulation, agonist; HEK293; 9.95 µM).

Excerpt of the above:
CC[C@H](C)[C@H](N)C(=O)N[C@@H](CO)C(=O)N[C@@H](Cc1ccccc1)C(=O)N[C@@H]1CSCc2ccc(cc2)-c2ccc(cc2)CSC[C@@H](C(=O)N[C@@H](CCC(=O)O)C(=O)N[C@@H](CO)C(=O)NCC(=O)N[C@@H](CO)C(N)=O)NC(=O)[C@H](Cc2ccc(O)cc2)NC(=O)[C@H](Cc2ccc(O)cc2)NC(=O)[C@H](CC(=O)O)NC(=O)[C@H](CC(C)C)NC(=O)[C@H](CC(C)C)NC(=O)[C@H](CCC(=O)O)NC1=O has a kon of 744 M⁻¹ s⁻¹ (Envelope glycoprotein gp160 (env, Human immunodeficiency virus type 1 group M subtype B, UniProt P35961); binding, SPR).
